Results collected from several papers.
Each line is one published result; not all experiments were run side by side. Values joined by “and” are separate records of one study, mostly repeats; a detail may differ. Numbers after ± are the reported error.
UniProt Q16774, sequence (whole entry, looked up): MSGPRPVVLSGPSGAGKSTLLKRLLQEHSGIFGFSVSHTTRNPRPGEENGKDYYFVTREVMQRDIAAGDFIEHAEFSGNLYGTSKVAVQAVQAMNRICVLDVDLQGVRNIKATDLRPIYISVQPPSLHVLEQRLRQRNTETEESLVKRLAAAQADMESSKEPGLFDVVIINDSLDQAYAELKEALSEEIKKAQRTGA
UniProt P23458, sequence (whole entry, looked up): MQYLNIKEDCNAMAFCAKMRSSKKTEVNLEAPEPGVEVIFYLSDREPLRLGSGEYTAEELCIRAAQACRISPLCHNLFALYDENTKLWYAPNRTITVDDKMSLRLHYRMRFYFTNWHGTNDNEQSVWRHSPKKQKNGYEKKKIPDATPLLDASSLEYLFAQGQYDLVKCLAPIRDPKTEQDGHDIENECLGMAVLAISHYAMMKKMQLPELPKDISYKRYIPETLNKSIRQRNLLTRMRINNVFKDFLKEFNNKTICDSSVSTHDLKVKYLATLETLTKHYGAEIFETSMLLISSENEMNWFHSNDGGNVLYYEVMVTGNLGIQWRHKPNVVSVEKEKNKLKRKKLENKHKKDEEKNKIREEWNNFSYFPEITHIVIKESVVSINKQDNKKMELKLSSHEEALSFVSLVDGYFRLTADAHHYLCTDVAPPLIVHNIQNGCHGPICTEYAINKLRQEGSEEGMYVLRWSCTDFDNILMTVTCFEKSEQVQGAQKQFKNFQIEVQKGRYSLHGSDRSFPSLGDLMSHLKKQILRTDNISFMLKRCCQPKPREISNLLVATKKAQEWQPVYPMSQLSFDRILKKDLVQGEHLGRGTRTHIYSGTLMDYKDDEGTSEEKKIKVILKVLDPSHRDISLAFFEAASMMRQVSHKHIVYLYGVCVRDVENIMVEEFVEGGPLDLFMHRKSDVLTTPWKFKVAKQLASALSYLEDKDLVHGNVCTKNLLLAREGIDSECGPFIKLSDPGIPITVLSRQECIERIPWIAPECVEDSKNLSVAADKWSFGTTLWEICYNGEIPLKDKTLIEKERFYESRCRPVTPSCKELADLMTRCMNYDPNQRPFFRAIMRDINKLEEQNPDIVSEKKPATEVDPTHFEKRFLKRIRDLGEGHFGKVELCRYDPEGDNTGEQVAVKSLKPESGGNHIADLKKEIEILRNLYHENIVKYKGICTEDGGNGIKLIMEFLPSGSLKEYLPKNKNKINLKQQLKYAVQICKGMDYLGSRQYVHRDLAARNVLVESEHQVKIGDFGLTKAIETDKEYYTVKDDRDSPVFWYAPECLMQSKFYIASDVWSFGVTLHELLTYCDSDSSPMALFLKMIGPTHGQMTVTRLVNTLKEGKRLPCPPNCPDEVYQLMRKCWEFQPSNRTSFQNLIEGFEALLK
UniProt P52497, sequence (whole entry, looked up): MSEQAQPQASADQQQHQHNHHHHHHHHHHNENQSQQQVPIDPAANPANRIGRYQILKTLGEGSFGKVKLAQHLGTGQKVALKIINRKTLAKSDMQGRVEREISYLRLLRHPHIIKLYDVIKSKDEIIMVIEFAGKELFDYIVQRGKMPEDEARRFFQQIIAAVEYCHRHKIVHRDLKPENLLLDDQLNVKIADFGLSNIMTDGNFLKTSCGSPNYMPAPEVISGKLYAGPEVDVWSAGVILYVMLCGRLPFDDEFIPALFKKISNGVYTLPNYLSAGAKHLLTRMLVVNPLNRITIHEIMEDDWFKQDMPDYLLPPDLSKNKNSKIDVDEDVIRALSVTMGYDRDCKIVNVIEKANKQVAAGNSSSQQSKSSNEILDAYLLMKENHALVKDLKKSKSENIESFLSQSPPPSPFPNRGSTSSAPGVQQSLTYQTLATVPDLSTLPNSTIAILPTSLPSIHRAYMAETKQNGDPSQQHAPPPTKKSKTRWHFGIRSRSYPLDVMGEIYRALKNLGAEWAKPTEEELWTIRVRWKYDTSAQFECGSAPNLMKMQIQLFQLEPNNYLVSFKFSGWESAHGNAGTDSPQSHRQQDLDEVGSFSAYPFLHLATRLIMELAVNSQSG
UniProt P51575, sequence (whole entry, unmodified, looked up): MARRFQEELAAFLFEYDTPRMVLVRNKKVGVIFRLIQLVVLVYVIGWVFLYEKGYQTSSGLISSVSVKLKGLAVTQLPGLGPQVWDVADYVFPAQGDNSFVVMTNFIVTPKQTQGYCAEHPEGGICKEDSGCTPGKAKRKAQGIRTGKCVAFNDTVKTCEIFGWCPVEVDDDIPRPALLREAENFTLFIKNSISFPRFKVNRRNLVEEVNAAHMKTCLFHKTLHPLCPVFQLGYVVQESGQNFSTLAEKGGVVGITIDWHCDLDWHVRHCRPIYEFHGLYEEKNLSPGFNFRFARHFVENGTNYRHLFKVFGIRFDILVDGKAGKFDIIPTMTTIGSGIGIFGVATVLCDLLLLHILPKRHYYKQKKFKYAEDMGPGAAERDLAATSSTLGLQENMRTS
UniProt Q92797, sequence (whole entry, looked up): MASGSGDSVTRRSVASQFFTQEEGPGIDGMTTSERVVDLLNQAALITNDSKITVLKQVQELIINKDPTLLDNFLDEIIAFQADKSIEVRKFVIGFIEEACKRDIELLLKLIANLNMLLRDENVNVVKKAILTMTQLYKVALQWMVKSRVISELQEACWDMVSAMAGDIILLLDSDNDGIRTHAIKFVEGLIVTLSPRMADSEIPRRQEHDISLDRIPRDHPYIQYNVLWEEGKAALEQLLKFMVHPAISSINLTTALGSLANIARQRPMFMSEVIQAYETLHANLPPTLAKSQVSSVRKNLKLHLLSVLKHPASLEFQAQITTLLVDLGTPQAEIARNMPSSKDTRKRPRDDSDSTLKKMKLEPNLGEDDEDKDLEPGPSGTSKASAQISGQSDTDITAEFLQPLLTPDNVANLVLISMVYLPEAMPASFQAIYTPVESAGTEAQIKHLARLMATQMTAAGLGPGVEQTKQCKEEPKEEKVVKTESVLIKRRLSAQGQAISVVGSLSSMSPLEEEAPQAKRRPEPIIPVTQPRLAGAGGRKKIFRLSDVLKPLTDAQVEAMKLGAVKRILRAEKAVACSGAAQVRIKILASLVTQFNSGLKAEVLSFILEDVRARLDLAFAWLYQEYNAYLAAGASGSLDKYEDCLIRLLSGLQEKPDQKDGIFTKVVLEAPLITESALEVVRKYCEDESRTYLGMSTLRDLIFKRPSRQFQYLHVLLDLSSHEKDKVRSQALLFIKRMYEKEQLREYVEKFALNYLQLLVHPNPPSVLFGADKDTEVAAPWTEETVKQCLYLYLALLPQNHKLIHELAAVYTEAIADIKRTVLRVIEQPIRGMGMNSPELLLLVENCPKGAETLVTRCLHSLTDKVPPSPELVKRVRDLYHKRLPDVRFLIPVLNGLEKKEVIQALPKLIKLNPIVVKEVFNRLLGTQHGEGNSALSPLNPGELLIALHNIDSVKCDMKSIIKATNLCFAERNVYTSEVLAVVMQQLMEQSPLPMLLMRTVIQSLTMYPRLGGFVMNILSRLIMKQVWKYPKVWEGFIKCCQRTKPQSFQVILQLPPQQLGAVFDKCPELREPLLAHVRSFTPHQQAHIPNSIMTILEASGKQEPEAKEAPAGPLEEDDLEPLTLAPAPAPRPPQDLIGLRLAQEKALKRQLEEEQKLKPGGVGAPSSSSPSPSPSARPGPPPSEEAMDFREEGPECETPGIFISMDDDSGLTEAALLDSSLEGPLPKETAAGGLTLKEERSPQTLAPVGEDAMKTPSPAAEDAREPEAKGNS
UniProt P0A800, sequence (whole entry, looked up): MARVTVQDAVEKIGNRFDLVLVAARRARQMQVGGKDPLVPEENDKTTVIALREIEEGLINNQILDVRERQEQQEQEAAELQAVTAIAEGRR

`CCC[C@@H]1NC(=O)[C@H](Cc2ccc(O)cc2)NC(=O)[C@H](CC(C)C)NC(=O)[C@@H]2CCCN2C(=O)[C@@H](NC(=O)[C@H](CCCNC(=N)N)NC(=O)[C@H](CCCNC(=N)N)NC(C)=O)CSSC[C@@H](C(=O)N[C@@H](CCCNC(=N)N)C(=O)N[C@@H](CCCNC(=N)N)C(N)=O)NC(=O)[C@H](C(C)C)NC(=O)[C@@H]2CCCN2C(=O)[C@H](CC(=O)O)NC(=O)[C@H](Cc2ccc(O)cc2)NC(=O)[C@H](CO)NC1=O` — result for “lowest bound protein concentration”: 1.25 µM (GTPase KRas, GDP-bound (KRAS, Homo sapiens, UniProt P01116, G12D); affinity selection mass spectrometry; mixture library 1, with: protein titration up to 5 µM; lower is stronger binding).
`O=C(COP(=O)(O)O)[C@@H](O)[C@H](O)[C@H](O)COP(=O)(O)O` — result for “thermal stability ratio”: 0.615 and 0.474 and 0.812 (Small ribosomal subunit protein uS5 (Homo sapiens, UniProt P15880); thermal proteome profiling, measured: RPS2; HepG2 cell lysate; concentration not given, 57 over 37 °C; baseline: compound over control).
With `N[C@H](CNC(=O)c1ccc(-c2cccc3ccccc23)s1)C(=O)O` the Hill slope was 1.1 (Glutamate receptor ionotropic, NMDA 1, with GluN2C (Grin1, Rattus norvegicus, UniProt P35439); with: glutamate 300 µM).
`NC/C(=C\F)COc1cccc(Cn2c(=S)[nH]c(=O)c3[nH]cnc32)c1` gave an inhibition of less than 50% (rat L-type calcium channel; radioligand binding; 10 µM, benzothiazepine site).
The calcium influx of `Nc1ncnc2c1ncn2[C@@H]1O[C@H](COP(=O)(O)CP(=O)(O)OP(=O)(O)O)[C@@H](O)[C@H]1O` is reported as 1.64% (P2X purinoceptor 1 (P2RX1, Homo sapiens, UniProt P51575, D170A); calcium influx; 31.6 nM; baseline: ionomycin response).
For `Oc1ccccc1-c1n[nH]cc1-c1ccnc2ccccc12`, “log2 fold change” read 0.01 (Carbon catabolite-derepressing protein kinase (SNF1, Candida albicans, UniProt P52497); kinase binding, MIB/MS competition; Candida albicans lysate; 10 µM; baseline: DMSO, negative = stronger binding).
With `C[S+](CC[C@H](N)C(=O)[O-])C[C@H]1O[C@@H](n2cnc3c(N)ncnc32)[C@H](O)[C@@H]1O` (stereo partly drawn) the apparent Vmax was 2.7 ± 0.2 µM/min (Histone-lysine N-methyltransferase 2C (KMT2C, Homo sapiens, UniProt Q8NEZ4); substrate, enzyme-coupled methylation; with: H3 peptide 400 µM).
`Nc1nc2c(ncn2[C@@H]2O[C@H](COP(=O)(O)OP(=O)(O)O)[C@@H](OP(=O)(O)OP(=O)(O)O)[C@H]2O)c(=O)[nH]1`: “log2 fold change” 0.55 (rpoZ/rpoC (Escherichia coli, UniProt P0A800+P0A8T7); capture compound SILAC-MS; concentration not given; baseline: heavy over light).
`C=CC(C)(O)CCC=C(C)C` (stereo not drawn) has a relative fluorescence of 63% (uncharacterized protein (Spodoptera exigua, UniProt F1CEY0); binding, competitor, fluorescence displacement; 20 µM, pH 7.4, with: 1-NPN 20 µM; baseline: 1-NPN alone).
For `Cc1ccc(S(=O)(=O)Nc2ccc(F)cc2NS(=O)(=O)c2ccc(C)cc2)cc1`, binding read “no binding” (biotinylated pre-let-7d RNA; SPR; up to 6.25 µM).
`COc1cc(-c2[o+]c3cc(O)cc(O)c3cc2O[C@@H]2O[C@H](CO)[C@@H](O)[C@H](O)[C@H]2O)cc(O)c1O` gave a bathochromic shift of 69 nm (Albumin (ALB, Homo sapiens, UniProt P02768); binding, visible absorption; 50 µM, pH 7, with: HSA up to 200 µM; baseline: without HSA).
For `O=c1cc(-c2ccc([N+](=O)[O-])cc2)[nH]c2c(-c3ccc(Cl)cc3)c(Cc3ccccc3)nn12`, “melting temperature shift” read 5.2 °C (Symplekin (Homo sapiens, UniProt Q92797); thermal stability, binder, thermal proteome profiling; RD, cell lysate; 50 µM, 0.5% DMSO; baseline: DMSO vehicle).
For `Nc1nc2c(ncn2[C@@H]2O[C@H](COP(=O)(O)O)[C@@H](O)[C@H]2O)c(=O)[nH]1`, the reaction velocity was 0.0854 µM/s and 0.0943 µM/s and 0.0824 µM/s (GUK1 (Homo sapiens, UniProt Q16774); enzyme activity, NADH-coupled; 500 µM, with: NaCl 50 mM).
The activation V1/2 of `CCN(CCO)CCCC(C)Nc1ccnc2cc(Cl)ccc12` (stereo not drawn) is reported as -47.7 ± 3.6 mV (Sodium channel protein type 5 subunit alpha (SCN5A, Homo sapiens, UniProt Q14524); sodium current; 300 µM).
`Cc1cc(-c2ccnc3[nH]cc(F)c23)cc(F)c1[C@@]1(O)[C@H](C)CN(C2CCS(=O)(=O)CC2)C[C@@H]1C`: “probe labelling inhibition” 10.3% (Tyrosine-protein kinase JAK1 (JAK1, Homo sapiens, UniProt P23458); ATP/ADP probe binding, KiNativ; HEK293T lysate; 1 µM, activation loop domain 1).

Excerpt of the above:
`C=CC(C)(O)CCC=C(C)C` (stereo not drawn) has a relative fluorescence of 63% (uncharacterized protein (Spodoptera exigua, UniProt F1CEY0); binding, competitor, fluorescence displacement; 20 µM, pH 7.4, with: 1-NPN 20 µM; baseline: 1-NPN alone).
